Published values collected from several papers.
Numbered parts are unrelated; each lists some results of a single study.
Sequence of UniProt P07949 (whole entry, unmodified, looked up): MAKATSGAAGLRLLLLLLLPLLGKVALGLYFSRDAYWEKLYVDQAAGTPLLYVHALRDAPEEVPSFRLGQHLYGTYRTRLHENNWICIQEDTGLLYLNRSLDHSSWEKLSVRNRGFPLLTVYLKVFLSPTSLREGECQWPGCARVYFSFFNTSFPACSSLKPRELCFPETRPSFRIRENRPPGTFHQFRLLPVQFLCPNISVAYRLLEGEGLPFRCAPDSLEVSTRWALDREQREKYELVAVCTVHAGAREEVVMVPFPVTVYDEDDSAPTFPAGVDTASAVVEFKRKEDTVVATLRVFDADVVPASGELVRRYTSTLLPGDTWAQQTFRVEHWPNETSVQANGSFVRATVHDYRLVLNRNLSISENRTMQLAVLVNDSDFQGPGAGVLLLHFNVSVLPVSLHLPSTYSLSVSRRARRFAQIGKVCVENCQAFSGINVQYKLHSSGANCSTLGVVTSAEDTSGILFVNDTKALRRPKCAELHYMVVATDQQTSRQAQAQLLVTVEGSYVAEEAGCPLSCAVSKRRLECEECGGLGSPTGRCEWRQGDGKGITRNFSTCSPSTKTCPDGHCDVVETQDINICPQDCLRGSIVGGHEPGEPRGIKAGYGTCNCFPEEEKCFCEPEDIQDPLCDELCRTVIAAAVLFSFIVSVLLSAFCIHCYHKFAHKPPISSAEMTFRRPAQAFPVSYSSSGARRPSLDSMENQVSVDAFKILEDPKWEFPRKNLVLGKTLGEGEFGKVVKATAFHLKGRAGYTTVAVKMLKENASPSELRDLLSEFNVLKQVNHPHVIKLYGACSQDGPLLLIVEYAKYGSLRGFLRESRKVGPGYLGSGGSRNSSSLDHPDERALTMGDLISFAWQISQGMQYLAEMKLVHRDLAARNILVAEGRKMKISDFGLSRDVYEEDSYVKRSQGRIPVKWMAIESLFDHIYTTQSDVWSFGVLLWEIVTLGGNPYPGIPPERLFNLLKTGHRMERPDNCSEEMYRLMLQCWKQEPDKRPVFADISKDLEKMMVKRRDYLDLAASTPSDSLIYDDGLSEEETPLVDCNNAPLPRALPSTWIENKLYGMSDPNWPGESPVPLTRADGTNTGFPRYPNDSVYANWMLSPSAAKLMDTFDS
Sequence of UniProt Q9H422 (whole entry, looked up): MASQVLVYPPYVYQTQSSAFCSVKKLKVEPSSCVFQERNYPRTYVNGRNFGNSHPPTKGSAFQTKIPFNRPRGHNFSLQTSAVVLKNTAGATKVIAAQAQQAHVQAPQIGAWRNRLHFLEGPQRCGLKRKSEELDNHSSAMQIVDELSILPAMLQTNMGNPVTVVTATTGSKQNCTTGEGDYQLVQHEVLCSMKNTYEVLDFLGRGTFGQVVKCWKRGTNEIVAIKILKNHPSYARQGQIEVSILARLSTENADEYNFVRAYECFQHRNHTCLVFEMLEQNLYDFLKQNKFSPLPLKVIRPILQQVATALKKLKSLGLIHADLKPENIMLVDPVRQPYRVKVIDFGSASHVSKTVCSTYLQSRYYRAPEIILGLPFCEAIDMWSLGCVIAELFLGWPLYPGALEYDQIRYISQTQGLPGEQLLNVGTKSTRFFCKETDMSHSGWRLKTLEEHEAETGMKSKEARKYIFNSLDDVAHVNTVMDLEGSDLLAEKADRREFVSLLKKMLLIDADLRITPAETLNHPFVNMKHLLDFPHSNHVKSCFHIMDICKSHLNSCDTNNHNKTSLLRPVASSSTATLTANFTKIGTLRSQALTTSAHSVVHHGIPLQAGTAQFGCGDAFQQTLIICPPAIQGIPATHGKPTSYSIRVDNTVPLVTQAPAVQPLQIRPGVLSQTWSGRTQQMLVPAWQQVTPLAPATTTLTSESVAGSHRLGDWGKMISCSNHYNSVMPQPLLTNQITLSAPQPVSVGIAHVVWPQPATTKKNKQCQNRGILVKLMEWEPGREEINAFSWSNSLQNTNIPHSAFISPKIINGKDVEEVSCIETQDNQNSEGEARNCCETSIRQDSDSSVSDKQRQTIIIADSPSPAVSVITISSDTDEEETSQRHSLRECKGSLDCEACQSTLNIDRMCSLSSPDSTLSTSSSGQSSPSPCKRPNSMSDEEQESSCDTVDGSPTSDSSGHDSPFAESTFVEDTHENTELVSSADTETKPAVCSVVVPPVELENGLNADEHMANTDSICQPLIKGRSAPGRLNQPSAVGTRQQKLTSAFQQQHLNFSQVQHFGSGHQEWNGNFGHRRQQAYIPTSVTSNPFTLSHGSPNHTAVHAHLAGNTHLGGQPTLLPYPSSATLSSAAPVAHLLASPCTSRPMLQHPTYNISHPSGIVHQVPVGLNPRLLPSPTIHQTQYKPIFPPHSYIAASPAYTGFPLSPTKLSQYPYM
Sequence of UniProt Q9BUB5 (whole entry, looked up): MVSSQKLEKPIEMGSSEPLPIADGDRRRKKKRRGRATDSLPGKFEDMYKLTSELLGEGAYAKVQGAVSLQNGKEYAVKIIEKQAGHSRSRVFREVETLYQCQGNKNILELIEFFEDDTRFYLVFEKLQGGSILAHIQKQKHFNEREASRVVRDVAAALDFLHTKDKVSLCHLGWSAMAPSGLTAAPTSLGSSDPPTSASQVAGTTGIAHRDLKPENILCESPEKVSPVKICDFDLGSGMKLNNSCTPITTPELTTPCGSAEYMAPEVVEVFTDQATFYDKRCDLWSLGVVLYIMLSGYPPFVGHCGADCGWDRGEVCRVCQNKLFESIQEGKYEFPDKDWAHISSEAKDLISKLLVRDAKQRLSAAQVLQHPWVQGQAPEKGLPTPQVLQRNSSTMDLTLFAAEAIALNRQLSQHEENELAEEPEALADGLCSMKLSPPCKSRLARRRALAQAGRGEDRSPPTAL

Set 1 — method: RNAcompete; form: RNA; sample: in vitro; concentration: 20 nM; notes: 7-mer, probes averaged, single round; relative to: mean of 7-mers; direction: higher = stronger binding
Target: PABPC1L2, full length, GST fusion (mouse, UniProt A0ABA7IW68)
Construct (chain): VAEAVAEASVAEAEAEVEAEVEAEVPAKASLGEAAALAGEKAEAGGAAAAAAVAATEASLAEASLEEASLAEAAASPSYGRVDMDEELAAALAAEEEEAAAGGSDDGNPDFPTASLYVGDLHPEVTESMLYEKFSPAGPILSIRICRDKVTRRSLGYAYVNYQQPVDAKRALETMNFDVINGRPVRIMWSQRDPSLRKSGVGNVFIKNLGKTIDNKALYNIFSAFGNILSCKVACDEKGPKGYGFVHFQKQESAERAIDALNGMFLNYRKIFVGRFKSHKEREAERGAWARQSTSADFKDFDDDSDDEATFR
| Strand | 7-mer Z-score |
| --- | --- |
| CUAAAAU | 2.04 |
| AAUGGGA | 0.479 |
| AAUCUUA | 0.0968 |
| CUCACCG | -0.293 |
| UCUUCGA | -0.313 |
| AUUAGUC | -0.267 |
| UUAAACA | 1.14 |
| GUACGGC | -0.0192 |

Set 2 — method: protein-binding microarray; form: double-stranded DNA, one strand shown; sample: in vitro; concentration: 940 nM top; notes: 60-bp whole probe; with: salmon DNA 0.4 mg/ml; relative to: random background probes; direction: higher = stronger binding; all sequences stand within: GCCTAGCAC … GTCTTGATTCGCTTGACGCTGCTG
Target: Interferon regulatory factor 5, full length, phosphomimetic (IRF5, Homo sapiens, UniProt Q13568-2, residues 1-514, S451D/S453D/S456D/S462D)
| Strand | fitted relative affinity [z-score] |
| --- | --- |
| GACGGTTTGGACACTGGGGACGTGCTA | -0.322 |
| AGTGTGGTCTGTTTCTGATAGTGCTAG | 0.499 |
| GACGGTATCGGGACTGGGGCCGTGCTA | 2.89 |
| TTAGAACTGAGTATAGATTAGTGCTAG | -0.503 |
| GATGATCTCAGACTGGAGACGTGCTAG | -0.43 |
| GACGGTCTCGGTCCCGGGACGTGCTAG | 3.08 |
| TTCATTATTGCTTCCTCTTTGTGCTAG | 1.06 |
| GACGATATCGGGACCGGAGACGTGCTA | 0.146 |

Set 3 — method: universal PBM; form: double-stranded DNA, one strand shown; sample: in vitro; concentration: 600 nM; direction: higher = stronger binding
Target: Sal-like protein 4, full length isoform A (SALL4, Homo sapiens, UniProt Q9UJQ4, residues 1-1053)
Sequence of UniProt Q9UJQ4 (whole entry, looked up): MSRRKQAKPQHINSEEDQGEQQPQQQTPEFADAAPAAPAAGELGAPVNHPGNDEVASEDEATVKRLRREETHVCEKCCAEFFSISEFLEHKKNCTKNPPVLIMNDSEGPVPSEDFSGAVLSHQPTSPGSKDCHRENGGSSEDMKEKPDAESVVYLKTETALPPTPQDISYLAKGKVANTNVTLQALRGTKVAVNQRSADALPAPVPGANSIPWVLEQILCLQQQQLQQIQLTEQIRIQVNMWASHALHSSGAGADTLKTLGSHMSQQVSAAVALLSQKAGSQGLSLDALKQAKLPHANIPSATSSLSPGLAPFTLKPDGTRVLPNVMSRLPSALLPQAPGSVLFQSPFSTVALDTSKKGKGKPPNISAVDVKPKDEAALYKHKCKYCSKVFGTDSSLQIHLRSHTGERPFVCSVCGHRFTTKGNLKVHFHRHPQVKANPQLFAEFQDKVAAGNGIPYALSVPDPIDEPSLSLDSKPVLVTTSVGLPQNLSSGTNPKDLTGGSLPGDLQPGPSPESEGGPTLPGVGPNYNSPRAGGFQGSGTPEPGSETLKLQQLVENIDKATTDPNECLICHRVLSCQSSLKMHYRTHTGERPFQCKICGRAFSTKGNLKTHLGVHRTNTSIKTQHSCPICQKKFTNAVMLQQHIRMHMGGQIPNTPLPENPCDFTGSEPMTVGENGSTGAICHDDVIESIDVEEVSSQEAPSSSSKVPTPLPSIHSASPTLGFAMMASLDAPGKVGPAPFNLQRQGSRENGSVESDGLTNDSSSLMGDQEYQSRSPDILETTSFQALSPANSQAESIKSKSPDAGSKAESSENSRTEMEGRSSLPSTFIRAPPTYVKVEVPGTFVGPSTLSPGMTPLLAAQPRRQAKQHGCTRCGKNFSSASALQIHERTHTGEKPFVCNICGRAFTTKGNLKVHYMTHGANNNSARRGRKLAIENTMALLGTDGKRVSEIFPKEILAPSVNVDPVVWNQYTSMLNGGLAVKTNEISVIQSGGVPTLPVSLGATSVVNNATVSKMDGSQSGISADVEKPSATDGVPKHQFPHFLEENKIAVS
Notes: 8-mer, flanks averaged, mean of replicates
| Strand | E-score |
| --- | --- |
| GAAAATTC | 0.14 |
| AAGGCTGT | -0.173 |
| GATTCTGA | 0.064 |
| GGTAACAC | -0.0256 |
| GAATAAGA | 0.186 |
| ATCCAAAT | 0.276 |
| CTTGAAGC | 0.0169 |
| ATTCTCAC | 0.194 |

Set 4 — effect on: cell-free assay; method: competition with immobilised ligand; concentration: 1 µM
SMILES: CN(C)C(=O)Cn1cc(-c2nc([C@@](C)(c3ccc(-c4cnc(N)nc4)cc3)C3CC3)no2)cn1
| target | remaining binding [%] |
| --- | --- |
| HIPK3 (Homo sapiens, UniProt Q9H422) | 97 |
| MKNK1 (Homo sapiens, UniProt Q9BUB5) | 85 |
| RET (Homo sapiens, UniProt P07949, M918T) | 83 |
| EPHB2 (Homo sapiens, UniProt P29323) | 87 |

For quick reference, copied from above (set 3):
| Strand | E-score |
| --- | --- |
| GAATAAGA | 0.186 |
| GAAAATTC | 0.14 |
| AAGGCTGT | -0.173 |
| CTTGAAGC | 0.0169 |
